Results pooled from the literature.
Parts stem from different laboratories: compare values within a part only.

Block 1 — method: RNA Bind-n-Seq; form: RNA; sample: in vitro; concentration: 20 nM; setting: 6-mer, flanks averaged, single round; together with: 150 mM KCl; baseline: input library; direction: higher = stronger binding; endpoint: 6-mer enrichment (R)
Target: TAR DNA-binding protein 43, full length, His tag (TARDBP, Homo sapiens, UniProt Q13148, residues 1-414)
Sequence = UAACCG; value = 0.649
Sequence = GGUAGA; value = 1.58
Sequence = AUACGU; value = 0.62
Sequence = CCGCUA; value = 0.63
Sequence = CAUGCC; value = 0.659
Sequence = AACGUU; value = 0.554
Sequence = GGACGU; value = 1.56
Sequence = GUUGUG; value = 1.43

Block 2 — method: RNA Bind-n-Seq; form: RNA; sample: in vitro; concentration: 365 nM; baseline: no-protein control; direction: higher = stronger binding; endpoint: RBNS enrichment (R)
Target: RNA binding protein fox-1 homolog 2, RRM domain, GST-SBP tag (RBFOX2, Homo sapiens, UniProt O43251-10, residues 100-194)
Setting: natural RNA segment, single round, ends assumed
Shared flanks, not repeated: GGGAGUUCUACAGUCCGACGAUC … UGGAAUUCUCGGGUGCCAA
Target sequence (chain): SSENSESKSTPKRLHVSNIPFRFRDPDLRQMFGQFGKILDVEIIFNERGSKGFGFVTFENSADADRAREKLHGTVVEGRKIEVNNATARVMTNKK
Sequence = UGAAUCCAACAUCUAUUUGGAAUGAAUGUAAGACCACAGGUAGCAGGCAUACUCCUGCUUAGGAUAACCAUUUGCUGGUCUUCAUUCAAUUCUUUCUCUCUUUUUAUUAC; value = 0.564
Sequence = AUCCUUAGUAUGGUGGAAAGAUUUGUACCCUGACCCGCUCGAGUGGUGGUAGAUGUAUGUAAAUUAGAAGUUUGAAUGGGACAGGAUGAGAGUUCGAGGCUCUUUGUUUG; value = 4.43
Sequence = AGAAAUACCUGACUCCUGUACCACAGUCCAGUUUGUCCCAGUAGCAGGGACACCAAGGCCAAUGGGUUAUCUGGACCAAAGGUGGGGUGGAGGGCCUAGGUGGUAUCUCC; value = 0.334
Sequence = AGGCAUGGGUGCAAGGAAAAUUAGGGUACUCAACCUAAGUUCGGUUCCGAUGAAUUCUUAUCCCCUGCCCCUUCCUUUAAAAAACUUAGUGACAAAAUAGACAAUUUGCA; value = 5.52
Sequence = GUGAUACCAUCCCAGUGCCAUGAGCCCACACUGCCCGCCCUCAGGCUCUCAGGUGAACGUGGCCGUCAGCGGGGAAACGUGUGUGUCAGUUGGACCAUGUGGGACCCUGA; value = 0.379
Sequence = CUUUAGUUUGUUCACAGGGAGGCAAAGCUGACAUGAACCUUUUGUCGUGGGACUUCAGGCCACAUUGGCUUGAAGGCAUUCGUUUCCUUCUGGGGUGGGGACAGGCCCUC; value = 0.699

Block 3 — method: protein-binding microarray; form: double-stranded DNA, one strand shown; sample: in vitro; concentration: 2540 nM top; setting: 60-bp whole probe; together with: salmon DNA 0.4 mg/ml; baseline: random background probes; direction: higher = stronger binding; endpoint: fitted relative affinity; shared flanks, not repeated: GCCTAGCAC … GTCTTGATTCGCTTGACGCTGCTG
Target: Interferon regulatory factor 3, full length, phosphomimetic (IRF3, Homo sapiens, UniProt Q14653, residues 1-427, S386D/S396D/S398D/S402D/T404D/S405D)
Target sequence (chain): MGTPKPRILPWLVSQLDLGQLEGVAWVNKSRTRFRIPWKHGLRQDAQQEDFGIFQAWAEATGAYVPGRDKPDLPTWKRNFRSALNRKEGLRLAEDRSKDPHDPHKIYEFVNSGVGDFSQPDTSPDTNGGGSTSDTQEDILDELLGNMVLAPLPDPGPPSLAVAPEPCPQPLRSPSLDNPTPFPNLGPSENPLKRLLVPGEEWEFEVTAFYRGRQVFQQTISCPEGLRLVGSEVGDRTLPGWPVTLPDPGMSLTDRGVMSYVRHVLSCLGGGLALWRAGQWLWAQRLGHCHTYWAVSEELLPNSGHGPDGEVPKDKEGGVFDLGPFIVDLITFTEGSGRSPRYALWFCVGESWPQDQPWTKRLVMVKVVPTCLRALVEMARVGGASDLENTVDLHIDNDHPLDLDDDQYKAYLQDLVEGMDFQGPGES
Sequence = TTAGATCTCAGCCTCGATTAGTGCTAG; value = -0.351 z-score
Sequence = GACGATTTCAGTTCCGAGATGTGCTAG; value = 3 z-score
Sequence = TTTACTAGGAGTTTTCAGTCCGTGCTA; value = 0.5 z-score
Sequence = GACGAAATGAGTTTCGAGACGTGCTAG; value = 1.68 z-score
Sequence = TGTTTTTCATTGTTTTTCATCGTGCTA; value = 1.34 z-score
Sequence = GACAATCTCAGTTTCGAGACGTGCTAG; value = 2.76 z-score
Sequence = TTAGGTTTCGACTATCGGTCAGTGCTA; value = 2.31 z-score
Sequence = CTGTTTCTGTGTCACAGAGGGTGCTAG; value = 3.96 z-score

Other studies, line by line
Substance = PhoQ, residues 284 288 289 292 302 303 ALSMDL; target = PhoP, residues 12 14 15 18 19 MHTVL (Escherichia coli, UniProt P23836); assay = Sort-seq, refers to: YFP reporter; system = E. coli; setting = PhoQ-PhoP variant library, together with: 10 µM Mg2+; how to read = baseline: high Mg2+ state, higher = stronger signaling; endpoint = fold induction; value = 4.67

Repeated from above (block 1):
Sequence = AACGUU; value = 0.554
Sequence = GGACGU; value = 1.56
